Published values of several laboratories.
A part holds a random share of what one study measured. Changes are numbered by the printed parent chain.

Series 1
Target: RNA binding protein fox-1 homolog 2, RRM domain, GST-SBP tag (RBFOX2, Homo sapiens, UniProt O43251-10, residues 100-194)
Method: RNA Bind-n-Seq
Molecule type: RNA
Sample: in vitro
Tested at: 365 nM
Notes: natural RNA segment, single round, ends assumed
Relative to: no-protein control
Direction: higher = stronger binding
All sequences stand within: GGGAGUUCUACAGUCCGACGAUC … UGGAAUUCUCGGGUGCCAA
Residues (chain): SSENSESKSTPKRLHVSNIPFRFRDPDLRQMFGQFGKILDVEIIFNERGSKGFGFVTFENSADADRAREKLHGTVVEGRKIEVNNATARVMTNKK
Sequence	RBNS enrichment (R)
CACUUUAUUUCUGACCCCGUGGCUUCGGCUGAGACCUGUGUAACCUGCUGCCCCCUCCACCCCCAACCCAGUCCUACCUGUCACACCGGACGGACCCGCUGUGCCUUCUA	3.7
GCCAAAUAUCUGGGUUUCCCCCUCUCCUCAUUCCCUAGCAAACCCCAAUUAUCUUCCAAGAUAGGAGAUAUUUCCCAUCCCCUUCCUUUGUAAAUAUCUCAUCUCCCACU	1.13
AGAAGGUGAACAACCUGAAAGCGCCUGUGAAGGGAACCAGUCACUCUUCUGUACCUCUCUUCUCUUAGAGAAAAAAAUGCCUUCCUUGCUUUGUAUCAUACCCAAUAUUU	0.554
CUGUUUUUAAGACACUUUGAUGUUUUUAUGGGGUGGUUGGUAACCUCUCAGCCUAGCCUCUCCUCACUCAUUUUCAACGCUGACCCUGACAGGAUCCACAGACUUCUCCA	0.467
UACUUUAUAUUUUCUAUAUUUGUAACUUUGCAUGUUCUUGUUUUGUUAUAUAAAAAAAUUGUAAAUGUUUAAUAUCUGACUGAAAUUAAACGAGCGAAGAUGAGCACCAC	0.984
CAGCCACAGCAGCCUCUCCUUGCCACUUGCAAGACCCUAGGAGUUGCAGACUUGAAAAAGCUCUGUCUCCAACAGGGCCUCCUCUGAUCUCAGGAGCCUCAACUGUUUAU	0.282
GACUCUGCGCGAUAUCAAUACUGGCUAUUUUCUCUUCUCGCCGUAGUGCCGUUGGUUUCACAUGAUUGCACUUUUGUGGGUCACAAGUGAUACAUACGUGUAUUACUCGA	0.249
UUUUAAAAGAAAAAACUAUUCAUACCUGGCUUCCAGGUAAUUGACUUUGAAUUCUUACAAGCAAAGGUCAUUGUGUUUUUCUUGAAUAGACAUCUAAUAAAUUUUGCUUG	0.584
CCAUGUAAAUAAGUAGACUGUAAAGAGAGACUAUCUUGCAUUAUGACUGUAUGAAUUUCUAAGUGCUGUUUGAUUGGGUUUUGUUACAGGAUGUAUAAUUUAUCUGUCUA	2.54
UUCUCUUUGUUUCUGUUUCUUGCUCUCUCUCCCUGCCUUUAAAUGAAACAAGUCUAGUCUUCUGGUUUUCUAGCCCCUCUGGAUUCCCUUUUGACUCUUCCGUGCAUCCC	1.13
CUCAACCCACCAUGCUCAUCAUUCUGUCUCAUCCAUCCAUCCAUCCAUCCAUUCAUCGCCAUGUGUCCGCAAGACUGUCUCCAUGACCCUGAAAAAGGACUCUCGAGAUG	0.686
CCGACUCGCAUCUGGUAUUGUAGACCUUUUACCUCUCAUCCGUUGUGCUUACUAACAAAAUGUGAAAAGCAAGACCCAGGUGUCUCAUGUGGUGGCAGCACAGUGGCAGG	0.563

Series 2
Target: CCNB3, cyclin fold, Cln2 fusion (human)
Method: yeast growth competition, sequencing
Sample: yeast
Notes: strong parent motif
Relative to: not given
Direction: higher = stronger binding
Parent: SCAPER docking peptide (human); SNARRSLNFGGST; partner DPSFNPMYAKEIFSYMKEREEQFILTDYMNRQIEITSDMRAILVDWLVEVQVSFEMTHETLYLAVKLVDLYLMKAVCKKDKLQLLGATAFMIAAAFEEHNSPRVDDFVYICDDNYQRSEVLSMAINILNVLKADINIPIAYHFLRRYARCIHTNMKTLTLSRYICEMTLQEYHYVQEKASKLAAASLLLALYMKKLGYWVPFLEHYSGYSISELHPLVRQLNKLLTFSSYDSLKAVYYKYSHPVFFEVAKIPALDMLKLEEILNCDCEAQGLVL
Substitution	normalised enrichment score
G11A	1.25
N8K	1.04
G10M	0.798
S12H	1.51
S12Q	1.33
N8L	0.333
G11V	1.69
A3W	0.349
N8Q	0.914
N2M	0.958
F9A	-0.00782
A3C	1.74
R5P	0.181
R5K	0.818
G10D	1.64
N2Y	1.4
R4M	-0.0082

Series 3
Target: RING finger protein unkempt homolog, zinc fingers 1-6, GST-SBP tag (UNK, Homo sapiens, UniProt Q9C0B0, residues 30-357)
Method: RNA Bind-n-Seq
Molecule type: RNA
Sample: in vitro
Tested at: not given
Notes: RNA with constant flanks, human and mouse sites, ends assumed
Relative to: input RNA pool
Direction: higher = stronger binding
All sequences stand within: GGGAGUUCUACAGUCCGACGAUC … CAACAGAGGAUUGAGCAUCA
Construct (chain): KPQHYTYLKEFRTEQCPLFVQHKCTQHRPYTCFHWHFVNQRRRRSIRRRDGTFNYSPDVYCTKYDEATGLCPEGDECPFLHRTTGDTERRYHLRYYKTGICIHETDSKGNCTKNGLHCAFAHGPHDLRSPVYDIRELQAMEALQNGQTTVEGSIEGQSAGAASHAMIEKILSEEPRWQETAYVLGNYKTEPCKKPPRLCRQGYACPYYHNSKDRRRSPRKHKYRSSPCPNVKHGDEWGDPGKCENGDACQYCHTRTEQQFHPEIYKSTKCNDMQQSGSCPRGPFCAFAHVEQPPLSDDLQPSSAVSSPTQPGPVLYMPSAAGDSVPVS
Sequence	bound/input enrichment [ratio]
CCAAGCACUGGAACACUUCCACCAUCUCUCUCUGCUUAUCAGCAUCCCACCACCUUCAGCAAUAGAAACUUUGCUACCACUUCACCUUUGGUGCUUCAGGAUUCAACUUUUAACACUACA	0.754
ACAGAAAAUAGCAGCGCAGUGUUACUCCAGUGGCACGAAAAGGCCUUAGCAGUAGGAGGACUAGGCUCCAUUAUAAGAGUUCUUACAGCAAGAAAGACUGUUUAAAAAAAAUAAAAAGAC	0.507
GGCUAAGGAGUAUUGGACCCAGCGGCGACAAGAACGUUUUCGGGUUUUGUUUUUGUUUUCAAUUCUGUCUAGAUGCGAAUUUUGUGCCUGCUCCUAUCUGCUCCCCUGUACCCCUCAGCU	0.158
UUCUUGAUCUGGGACUGCUGUGAUGCAUGGUUAAAAGUAAAACAUCUUGUGAAUUUAAUUGUUAUGGAUCCAUUUGUUGAUCUUGCCAUCACUAUUUGCAUUGUCUUAAAUACCCUCUUU	0.105
UCCGUGCUUGUGGUGAAGGCGAGGCAGCCAAAGCCUUUCUUUGCUGCCGGAAAUACAUUUGAGAUGACUUGCAAAGUAUCUUCCAAGAAUAUUAAGUCGCCACGCUACUCUGUUCUCAUC	0.0979
AAGAACUUGGCCCUCAUGACACAUAUAACAACUGACAUGGAAGAUGGACCCAUUAUUAAGUUAGCUGGGAACUUGGGAGUAGAAGAUGUGAAUUUAUUAUGUGGAGAAGAGCUCUCUUAC	0.335
AAAGAACUACUUGCAGAGAUAGGUUCAUUAUCUCUUCAUUGUACCAUAGAUGAGAAGCGGUUAGCUGGCUAUUGUCAAGCGUGUGAUGUUCUUGUACCUUCUUCUGAUAAUAACUCUCAA	0.339
GGGCUCCGUGGCAAUGAAUUCUUCUGUGAAGUGGAUGAAGACUACAUCCAGGACAAAUUUAAUCUUACUGGACUCAAUGAGCAGGUCCCUCACUAUCGACAAGCUCUAGACAUGAUCUUG	0.201

Series 4
Target: Histone acetyltransferase KAT6A, winged helix 2, GST fusion (KAT6A, Homo sapiens, UniProt Q92794, residues 85-181)
Method: protein binding microarray
Molecule type: double-stranded DNA, one strand shown
Sample: in vitro
Tested at: not given
Notes: 8-mer, flanks averaged, mean of 2 arrays, mostly near background
Relative to: not given
Direction: higher = stronger binding
Construct (chain): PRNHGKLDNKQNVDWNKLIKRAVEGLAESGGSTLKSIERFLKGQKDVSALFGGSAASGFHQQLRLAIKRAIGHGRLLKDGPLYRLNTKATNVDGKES
Sequence	E-score
ACTGCGGA	0.00931
TTACCGAA	-0.137
AATGCCCT	-0.0733
AGCAATTC	0.021
AAGAAAGA	-0.0169
GTGTCAGA	0.0869
TACTGCTA	-0.0179
GTTGGGCA	0.0132
ACGTGCGC	0.0613
AACGCGGG	0.156
CGTAATGC	-0.14
AAGGCACA	0.111
CGATACCG	-0.046
CACAGATC	-0.216
CTCTGCAG	0.084

Series 5
Target: Interferon regulatory factor 7, full length, phosphomimetic (IRF7, Homo sapiens, UniProt Q92985, residues 1-503, S471D/S472D/S475D/S476D/S477D/S483D/S484D/S487D)
Sequence of UniProt Q92985 (whole entry, unmodified, looked up): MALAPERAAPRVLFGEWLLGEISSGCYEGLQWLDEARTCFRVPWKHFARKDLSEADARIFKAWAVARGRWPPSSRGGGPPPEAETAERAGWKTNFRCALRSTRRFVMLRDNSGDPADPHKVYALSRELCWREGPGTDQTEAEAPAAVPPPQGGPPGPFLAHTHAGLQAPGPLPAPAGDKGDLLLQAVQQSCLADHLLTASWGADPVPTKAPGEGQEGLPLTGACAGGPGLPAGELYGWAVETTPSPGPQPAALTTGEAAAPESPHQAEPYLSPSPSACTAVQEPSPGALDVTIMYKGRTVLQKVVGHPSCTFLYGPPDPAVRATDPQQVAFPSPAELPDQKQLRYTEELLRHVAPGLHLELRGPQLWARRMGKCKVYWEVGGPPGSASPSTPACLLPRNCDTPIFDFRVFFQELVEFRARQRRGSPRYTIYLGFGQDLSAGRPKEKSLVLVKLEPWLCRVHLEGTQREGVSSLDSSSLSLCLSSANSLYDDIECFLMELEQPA
Method: protein-binding microarray
Molecule type: double-stranded DNA, one strand shown
Sample: in vitro
Tested at: 2200 nM top
Notes: 60-bp whole probe
Together with: salmon DNA 0.4 mg/ml
Relative to: random background probes
Direction: higher = stronger binding
All sequences stand within: GCCTAGCAC … GTCTTGATTCGCTTGACGCTGCTG
Sequence	fitted relative affinity [z-score]
CTTGCTTTATGTGTAGGTCTGTGCTAG	1.06
TCAGTTTTCTTTTCCATACTGTGCTAG	5.55
GACGAACTGGGGACAGGAGACGTGCTA	-0.387
TCATTTTTTTTTTTGTAACTGTGCTAG	2
TCCTGTTTGATAATTTTTTTGTGCTAG	1.6
GACGATCTCAGCCTGGAGACGTGCTAG	-0.164
TTAGGTCCCCTTTTCCTTTAGTGCTAG	2.24
TTATATCTGTGTTATTAAATTGTGCTA	0.668
TAAGGTCTCCTACTGCTTTAGTGCTAG	0.435
GACGATCTCGGGTTTCGAGACGTGCTA	1.33
TTAGGTATCCTTTTACTTTAGTGCTAG	0.95
TTAGATTTCGGGTATCGATAAGTGCTA	2.41

Series 6
Target: ABI1, truncated, D143A, DHFR fusion (Arabidopsis thaliana)
Method: DHFR PCA, deep sequencing
Sample: yeast
Notes: methotrexate growth selection, single substitutions
Together with: (+)-ABA 0.0091 µM
Relative to: wild-type fitted maximum
Direction: higher = stronger binding
Parent: PYL1, truncated, DHFR fusion (Arabidopsis thaliana); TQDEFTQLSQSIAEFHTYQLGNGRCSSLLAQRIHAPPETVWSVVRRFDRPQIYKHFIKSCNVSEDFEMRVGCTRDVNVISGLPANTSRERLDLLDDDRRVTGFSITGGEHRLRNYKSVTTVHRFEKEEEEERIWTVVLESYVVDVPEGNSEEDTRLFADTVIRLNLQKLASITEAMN
Substitution	relative binding score [%]
V40K	-0.395
T120E	-10.1
I52Y	2.11
S140W	6.19
F103Q	-4.28
A175D	22.8
P83M	5.51
V70N	-3.85
R163Y	-9.67
L28K	-3.49
L169H	-2.11
R155P	-3.44
G71N	1.03
R90N	7.08
V142Q	10.7
G102D	7.72
I105Y	-1.97
R99D	-7.91

Some of these lines once more (series 1):
Sequence	RBNS enrichment (R)
GACUCUGCGCGAUAUCAAUACUGGCUAUUUUCUCUUCUCGCCGUAGUGCCGUUGGUUUCACAUGAUUGCACUUUUGUGGGUCACAAGUGAUACAUACGUGUAUUACUCGA	0.249
UUUUAAAAGAAAAAACUAUUCAUACCUGGCUUCCAGGUAAUUGACUUUGAAUUCUUACAAGCAAAGGUCAUUGUGUUUUUCUUGAAUAGACAUCUAAUAAAUUUUGCUUG	0.584
CCAUGUAAAUAAGUAGACUGUAAAGAGAGACUAUCUUGCAUUAUGACUGUAUGAAUUUCUAAGUGCUGUUUGAUUGGGUUUUGUUACAGGAUGUAUAAUUUAUCUGUCUA	2.54
UUCUCUUUGUUUCUGUUUCUUGCUCUCUCUCCCUGCCUUUAAAUGAAACAAGUCUAGUCUUCUGGUUUUCUAGCCCCUCUGGAUUCCCUUUUGACUCUUCCGUGCAUCCC	1.13
CUCAACCCACCAUGCUCAUCAUUCUGUCUCAUCCAUCCAUCCAUCCAUCCAUUCAUCGCCAUGUGUCCGCAAGACUGUCUCCAUGACCCUGAAAAAGGACUCUCGAGAUG	0.686
CCGACUCGCAUCUGGUAUUGUAGACCUUUUACCUCUCAUCCGUUGUGCUUACUAACAAAAUGUGAAAAGCAAGACCCAGGUGUCUCAUGUGGUGGCAGCACAGUGGCAGG	0.563
